Results pooled from the literature.
Numbered parts are unrelated; each lists some results of a single study. Several values in a cell are separate wells, animals, samples, runs or records.
Chain of UniProt P27361 (whole entry, looked up): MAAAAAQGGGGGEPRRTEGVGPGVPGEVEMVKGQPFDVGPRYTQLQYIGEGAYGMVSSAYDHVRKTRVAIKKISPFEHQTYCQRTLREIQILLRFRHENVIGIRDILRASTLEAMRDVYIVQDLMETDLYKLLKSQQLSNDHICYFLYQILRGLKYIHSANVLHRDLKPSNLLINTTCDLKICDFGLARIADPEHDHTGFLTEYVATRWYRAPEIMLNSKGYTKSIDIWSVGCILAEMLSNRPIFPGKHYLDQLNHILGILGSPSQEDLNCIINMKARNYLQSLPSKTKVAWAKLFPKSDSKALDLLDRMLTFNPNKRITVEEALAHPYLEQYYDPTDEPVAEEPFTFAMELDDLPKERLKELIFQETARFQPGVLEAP
Chain of UniProt Q8IYT8 (whole entry, looked up): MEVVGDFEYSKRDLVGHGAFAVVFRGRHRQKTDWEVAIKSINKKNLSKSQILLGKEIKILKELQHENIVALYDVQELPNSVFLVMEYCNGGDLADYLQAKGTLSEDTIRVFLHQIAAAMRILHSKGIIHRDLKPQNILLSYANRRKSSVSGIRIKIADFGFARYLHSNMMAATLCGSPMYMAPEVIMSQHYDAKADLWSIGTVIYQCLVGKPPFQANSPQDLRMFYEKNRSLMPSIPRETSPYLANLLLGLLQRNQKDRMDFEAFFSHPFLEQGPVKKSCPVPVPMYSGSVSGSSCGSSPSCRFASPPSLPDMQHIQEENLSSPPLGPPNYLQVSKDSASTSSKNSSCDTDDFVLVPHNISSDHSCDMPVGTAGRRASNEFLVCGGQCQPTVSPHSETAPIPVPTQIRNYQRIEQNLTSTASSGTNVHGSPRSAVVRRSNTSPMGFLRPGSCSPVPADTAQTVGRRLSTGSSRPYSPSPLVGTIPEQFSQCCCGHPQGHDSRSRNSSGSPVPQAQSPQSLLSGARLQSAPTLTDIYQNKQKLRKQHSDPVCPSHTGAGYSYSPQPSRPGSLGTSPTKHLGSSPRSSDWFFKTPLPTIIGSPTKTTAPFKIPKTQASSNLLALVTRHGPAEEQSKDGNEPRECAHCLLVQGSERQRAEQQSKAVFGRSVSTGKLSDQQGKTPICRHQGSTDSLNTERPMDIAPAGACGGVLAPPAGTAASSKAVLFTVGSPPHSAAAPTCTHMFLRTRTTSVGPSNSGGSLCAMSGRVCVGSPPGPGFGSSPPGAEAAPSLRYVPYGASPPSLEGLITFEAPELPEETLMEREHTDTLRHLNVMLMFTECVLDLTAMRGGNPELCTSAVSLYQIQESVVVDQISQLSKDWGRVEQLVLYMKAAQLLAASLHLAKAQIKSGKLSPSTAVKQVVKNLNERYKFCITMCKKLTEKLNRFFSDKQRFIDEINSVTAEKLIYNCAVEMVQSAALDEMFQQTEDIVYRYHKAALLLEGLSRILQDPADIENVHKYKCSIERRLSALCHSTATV
Chain of UniProt P36896 (whole entry, looked up): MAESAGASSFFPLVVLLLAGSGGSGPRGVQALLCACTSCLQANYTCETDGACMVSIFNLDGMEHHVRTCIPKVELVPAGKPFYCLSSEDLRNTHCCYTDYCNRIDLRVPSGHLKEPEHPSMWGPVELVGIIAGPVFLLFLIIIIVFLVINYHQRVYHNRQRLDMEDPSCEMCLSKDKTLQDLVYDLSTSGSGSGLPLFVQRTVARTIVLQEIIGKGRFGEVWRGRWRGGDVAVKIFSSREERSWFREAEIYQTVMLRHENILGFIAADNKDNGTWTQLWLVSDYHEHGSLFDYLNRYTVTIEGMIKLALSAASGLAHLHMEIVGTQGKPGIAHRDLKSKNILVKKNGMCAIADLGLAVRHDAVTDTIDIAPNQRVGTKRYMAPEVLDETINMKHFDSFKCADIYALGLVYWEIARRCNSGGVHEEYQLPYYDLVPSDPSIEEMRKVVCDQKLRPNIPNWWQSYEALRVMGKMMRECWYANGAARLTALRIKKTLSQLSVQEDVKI
Chain of UniProt P32298 (whole entry, looked up): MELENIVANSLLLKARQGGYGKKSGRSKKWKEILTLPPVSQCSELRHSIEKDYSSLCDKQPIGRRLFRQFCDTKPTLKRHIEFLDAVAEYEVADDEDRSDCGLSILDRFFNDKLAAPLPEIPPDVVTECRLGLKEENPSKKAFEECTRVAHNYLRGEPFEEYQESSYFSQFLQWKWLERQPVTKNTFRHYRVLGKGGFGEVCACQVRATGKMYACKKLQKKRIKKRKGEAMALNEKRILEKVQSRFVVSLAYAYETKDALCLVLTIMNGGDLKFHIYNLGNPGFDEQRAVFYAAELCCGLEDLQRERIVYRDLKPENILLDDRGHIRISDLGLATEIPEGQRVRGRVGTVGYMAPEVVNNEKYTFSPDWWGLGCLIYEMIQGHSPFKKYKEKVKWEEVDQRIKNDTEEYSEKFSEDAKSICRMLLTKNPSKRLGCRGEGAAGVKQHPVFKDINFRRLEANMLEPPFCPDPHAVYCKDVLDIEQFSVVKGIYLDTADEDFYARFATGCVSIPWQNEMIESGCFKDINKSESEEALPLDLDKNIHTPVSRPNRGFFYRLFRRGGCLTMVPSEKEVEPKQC
Chain of UniProt Q04912 (whole entry, looked up): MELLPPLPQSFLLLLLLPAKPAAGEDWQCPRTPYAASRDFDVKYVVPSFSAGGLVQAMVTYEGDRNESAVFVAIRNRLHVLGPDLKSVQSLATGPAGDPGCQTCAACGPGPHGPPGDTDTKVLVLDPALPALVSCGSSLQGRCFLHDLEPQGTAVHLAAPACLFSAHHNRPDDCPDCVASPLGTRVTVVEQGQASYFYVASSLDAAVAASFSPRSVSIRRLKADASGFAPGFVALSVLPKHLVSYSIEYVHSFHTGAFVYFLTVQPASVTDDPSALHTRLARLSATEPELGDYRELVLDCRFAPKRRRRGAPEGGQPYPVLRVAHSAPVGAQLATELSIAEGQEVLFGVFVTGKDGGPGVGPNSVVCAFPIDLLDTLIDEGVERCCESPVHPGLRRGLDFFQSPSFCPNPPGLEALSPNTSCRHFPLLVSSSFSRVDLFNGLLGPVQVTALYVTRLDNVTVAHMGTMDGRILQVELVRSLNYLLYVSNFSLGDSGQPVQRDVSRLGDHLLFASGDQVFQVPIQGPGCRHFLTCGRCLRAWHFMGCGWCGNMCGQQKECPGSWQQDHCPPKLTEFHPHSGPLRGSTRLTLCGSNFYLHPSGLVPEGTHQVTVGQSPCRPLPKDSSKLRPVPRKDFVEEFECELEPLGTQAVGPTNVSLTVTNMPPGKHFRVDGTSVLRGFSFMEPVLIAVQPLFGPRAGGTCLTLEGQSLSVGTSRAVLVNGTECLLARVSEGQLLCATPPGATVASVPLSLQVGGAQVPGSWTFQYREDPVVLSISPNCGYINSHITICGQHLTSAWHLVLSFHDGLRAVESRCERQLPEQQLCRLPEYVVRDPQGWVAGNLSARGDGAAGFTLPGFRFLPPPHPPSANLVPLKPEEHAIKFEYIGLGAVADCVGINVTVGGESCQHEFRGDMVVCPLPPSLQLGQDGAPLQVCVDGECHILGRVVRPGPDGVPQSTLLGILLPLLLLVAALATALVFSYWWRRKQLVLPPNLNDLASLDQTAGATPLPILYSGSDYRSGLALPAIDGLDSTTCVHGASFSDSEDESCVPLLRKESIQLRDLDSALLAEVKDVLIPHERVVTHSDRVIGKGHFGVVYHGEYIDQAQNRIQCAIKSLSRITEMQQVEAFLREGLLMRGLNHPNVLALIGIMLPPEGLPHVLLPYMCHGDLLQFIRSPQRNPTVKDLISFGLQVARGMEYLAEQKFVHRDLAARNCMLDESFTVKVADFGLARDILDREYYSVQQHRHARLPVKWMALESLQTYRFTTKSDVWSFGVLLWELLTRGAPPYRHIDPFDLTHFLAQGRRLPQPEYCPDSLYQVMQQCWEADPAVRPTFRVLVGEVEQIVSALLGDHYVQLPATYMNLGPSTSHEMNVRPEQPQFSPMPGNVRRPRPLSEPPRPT
Chain of UniProt P30291 (whole entry, looked up): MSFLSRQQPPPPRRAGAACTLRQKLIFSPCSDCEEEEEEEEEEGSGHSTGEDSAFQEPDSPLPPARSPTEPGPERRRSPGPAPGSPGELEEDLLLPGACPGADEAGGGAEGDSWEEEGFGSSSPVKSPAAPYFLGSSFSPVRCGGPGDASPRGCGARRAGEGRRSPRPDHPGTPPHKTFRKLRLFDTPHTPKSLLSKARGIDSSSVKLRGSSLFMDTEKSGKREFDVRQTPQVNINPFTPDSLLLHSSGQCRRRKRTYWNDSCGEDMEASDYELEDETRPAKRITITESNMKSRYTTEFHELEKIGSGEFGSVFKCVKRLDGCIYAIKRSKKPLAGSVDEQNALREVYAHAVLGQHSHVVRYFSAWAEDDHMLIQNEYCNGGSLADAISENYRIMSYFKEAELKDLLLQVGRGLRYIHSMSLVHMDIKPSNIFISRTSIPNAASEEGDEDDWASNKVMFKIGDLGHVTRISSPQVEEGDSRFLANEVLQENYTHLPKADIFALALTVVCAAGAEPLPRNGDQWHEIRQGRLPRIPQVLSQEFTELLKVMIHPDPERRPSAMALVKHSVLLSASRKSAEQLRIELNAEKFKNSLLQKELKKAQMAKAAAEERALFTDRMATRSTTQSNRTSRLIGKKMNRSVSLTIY
Chain of UniProt P42685 (whole entry, looked up): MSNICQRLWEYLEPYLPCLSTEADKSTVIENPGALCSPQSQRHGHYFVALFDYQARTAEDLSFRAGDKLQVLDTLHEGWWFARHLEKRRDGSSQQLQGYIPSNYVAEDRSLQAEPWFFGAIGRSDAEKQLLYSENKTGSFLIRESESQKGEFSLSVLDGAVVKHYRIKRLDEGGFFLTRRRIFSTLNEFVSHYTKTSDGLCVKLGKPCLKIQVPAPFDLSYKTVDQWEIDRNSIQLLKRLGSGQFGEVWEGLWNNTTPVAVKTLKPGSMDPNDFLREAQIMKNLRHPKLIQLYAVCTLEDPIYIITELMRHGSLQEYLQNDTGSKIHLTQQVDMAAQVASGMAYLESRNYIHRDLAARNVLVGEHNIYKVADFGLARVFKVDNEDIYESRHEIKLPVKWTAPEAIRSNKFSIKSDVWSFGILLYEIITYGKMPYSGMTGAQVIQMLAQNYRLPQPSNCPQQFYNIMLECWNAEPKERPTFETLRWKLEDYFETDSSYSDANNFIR

Series 1 — technique: PRP chromatography; setting: linear fit, 1 mL
| SMILES | logD 1,9-decadiene/water [log units] |
| --- | --- |
| CC(C)C[C@@H]1NC(=O)[C@H](CC(C)C)NC(=O)[C@@H](C(C)C)NC(=O)[C@H](C)NC(=O)[C@@H](Cc2cscn2)NC(=O)[C@@H](CC(C)C)NC(=O)[C@H](C)NC1=O | -1.68 |
| CC(C)C[C@@H]1NC(=O)[C@H](CC(C)C)NC(=O)[C@@H](C(C)C)NC(=O)[C@H](CC(C)C)NC(=O)[C@H](C(C)C)NC(=O)[C@H](Cc2cscn2)NC(=O)[C@H](C)NC1=O | -2.15 |
| CC(C)C[C@@H]1NC(=O)[C@H](C(C)C)NC(=O)[C@H](Cc2cscn2)NC(=O)[C@@H](CC(C)C)NC(=O)[C@@H](CCC(=O)N2CCCC2)NC(=O)[C@H](CC(C)C)NC(=O)[C@@H](CC(C)C)NC1=O | -1.2 |
| CC(C)C[C@@H]1NC(=O)[C@H](CC(C)C)NC(=O)[C@H](CC(C)C)NC(=O)[C@H](CC(C)C)NC(=O)[C@H](C(C)C)NC(=O)[C@H](C)NC(=O)[C@H](C)NC1=O | -0.842 |
| CC(C)C[C@@H]1NC(=O)[C@@H](C)NC(=O)[C@H](C)NC(=O)[C@@H](CC(C)C)NC(=O)[C@H](C(C)C)NC(=O)[C@H](CC(C)C)NC(=O)[C@@H](CC(C)C)NC1=O | -0.616 |

Series 2 — effect on: enzyme activity; action: inhibitor; concentration: 0.5 µM; relative to: control
SMILES: CSc1nc(-c2ccnc(N[C@@H](C)c3ccccc3)c2)c(-c2ccc(F)cc2)[nH]1 (racemic)
| target | remaining activity [%] |
| --- | --- |
| MAPKAPK2 (Homo sapiens, UniProt P49137) | 106 |
| ULK2 (Homo sapiens, UniProt Q8IYT8) | 94.1 |
| MAPK3 (Homo sapiens, UniProt P27361) | 68 |
| RPS6KA2 (Homo sapiens, UniProt Q15349) | 94.3 |
| FRK (Homo sapiens, UniProt P42685) | 100 |
| JAK3 (Homo sapiens, UniProt P52333) | 98.5 |
| MST1R (Homo sapiens, UniProt Q04912) | 81.3 |
| WEE1 (Homo sapiens, UniProt P30291) | 76.1 |
| ULK3 (Homo sapiens, UniProt Q6PHR2) | 85.3 |
| MAP3K14 (Homo sapiens, UniProt Q99558) | 127 |
| NEK1 (Homo sapiens, UniProt Q96PY6) | 86.3 |
| ACVR1B (Homo sapiens, UniProt P36896) | 95.9 |
| FGFR3 (Homo sapiens, UniProt P22607) | 83.7 |
| CSNK1G3 (Homo sapiens, UniProt Q9Y6M4) | 58.4 |

Series 3 — cell line: sample B colorectal tumour organoid; concentration: 1 µM; relative to: DMSO
| Structure (SMILES) | viability |
| --- | --- |
| CCOc1cn(-c2ccc(F)cc2C)nc1C(=O)Nc1ccc(Oc2ccnc3cc(OC)c(OC)cc23)c(F)c1 | 104% and 103% |
| CC(=O)NCC(=O)N1[C@@H]2CC[C@H]1c1ccc(Nc3ncc(C(F)(F)F)c(NC4CCC4)n3)cc12 | 36.1% and 33.7% |
| COc1cccc(NC(=O)c2nc3scc(CN(C)Cc4ccccc4)c3c(=O)[nH]2)c1 | 110% |
| CCC(=NO)C(C)=Cc1ccc(F)c(C)c1 | 88.8% |

Series 4 — effect on: binding; concentration: 1 µM
Structure (SMILES): COc1ccc2[nH]c3c4[nH]c5ccc(OC)cc5c4c4c(c3c2c1)C(=O)NC4=O
| target | technique | remaining binding [%] |
| --- | --- | --- |
| ERBB4 (Homo sapiens, UniProt Q15303) | competition with immobilised ligand | 59 |
| STK36 (Homo sapiens, UniProt Q9NRP7) | competition with immobilised ligand | 70 |
| FLT3 (Homo sapiens, UniProt P36888, R834Q) | – | 6.3 |
| HIPK1 (Homo sapiens, UniProt Q86Z02) | competition with immobilised ligand | 56 |
| MAP3K10 (Homo sapiens, UniProt Q02779) | – | 83 |
| GRK4 (Homo sapiens, UniProt P32298) | – | 100 |

A few entries again (series 2):
| target | remaining activity [%] |
| --- | --- |
| ULK2 (Homo sapiens, UniProt Q8IYT8) | 94.1 |
| MAPK3 (Homo sapiens, UniProt P27361) | 68 |
